{"data": "Measurements from different studies", "note": "Each line is one published result; not all experiments were run side by side."}
{"Structure (SMILES)": "CN[C@@H](C)C(=O)N[C@H]1CN(S(=O)(=O)c2cccc(S(=O)(=O)N3CC[C@H]4CC[C@@H](C(=O)NC(c5ccccc5)c5ccccc5)N4C(=O)[C@@H](NC(=O)[C@H](C)NC)C3)c2)CC[C@H]2CC[C@@H](C(=O)NC(c3ccccc3)c3ccccc3)N2C1=O", "system": "human, advanced solid tumours", "setting": "7 mg", "endpoint": "patients with treatment-related asthenia", "value": "0%"}
{"Structure (SMILES)": "O=C1Nc2cc3[nH]nc(-c4ccncc4)c3cc2CN1Cc1ccccc1", "assay": "CTCAE v4.03", "system": "human, relapsed or refractory advanced solid tumours", "setting": "intravenous, 7.2 mg/kg", "endpoint": "patients with QTc prolongation", "value": "0%"}
{"Structure (SMILES)": "CNC(=O)c1cc(Oc2ccc(NC(=O)Nc3cc(C(C)(C)C)nn3-c3ccc4ncccc4c3)c(F)c2)ccn1", "system": "human, trial", "setting": "oral, 150 mg twice daily, starting dose", "endpoint": "patients with related serious Death AE", "value": "3%"}
{"Structure (SMILES)": "N[C@@H]1c2ccccc2OC12CCN(c1cnc3c(N4CCCc5ncccc54)n[nH]c3n1)CC2", "assay": "item: Anemia", "system": "human advanced or metastatic solid tumours", "setting": "oral, 60 mg once daily, phase Ia pooled cohort", "endpoint": "patients with treatment-related adverse event", "value": "12%"}
{"Structure (SMILES)": "C=CC(=O)Nc1cc(Nc2nccc(Nc3cc(Cl)c(F)cc3C(C)(C)O)n2)c(OC)cc1N1CC[C@@H](N(C)C)C1", "system": "human patients", "setting": "oral, 400 mg, treatment-emergent adverse events", "endpoint": "patients with dizziness", "value": "20%"}
{"Structure (SMILES)": "CN(C)C(=O)c1cc2cnc(Nc3ccc(N4CCNCC4)cn3)nc2n1C1CCCC1", "assay": "item: Neutropenia, AESI", "system": "human, HR+/HER2− advanced breast cancer", "setting": "oral, dose not given, all grades, CTCAE v4.03", "endpoint": "patients with adverse event", "value": "77.9%"}
{"Structure (SMILES)": "COc1ncnn2ccc(-c3cnc4nc(C)n(Cc5nnc([C@@H](C)F)o5)c4c3)c12", "system": "human", "setting": "oral, dose not given, grade 5", "endpoint": "patients with increased blood creatinine", "value": "0%"}
{"Structure (SMILES)": "C[C@]1(O)C[C@@](N)(c2ccc(-c3nc4n(c3-c3ccccc3)COc3ccncc3-4)cc2)C1", "system": "human, advanced or metastatic solid tumours", "setting": "dose not given, intermittent dose escalation total", "endpoint": "patients with any TEAE", "value": "85.7%"}
{"Structure (SMILES)": "Cc1cn([C@H]2O[C@@H](CO[P@@](=O)(N[C@@H](C)C(=O)OC(C)C)Oc3ccccc3)[C@H](O)[C@H]2F)c(=O)[nH]c1=O", "assay": "item: Nausea", "system": "human", "setting": "50 mg", "endpoint": "patients with TEAE", "value": "17%"}
{"Structure (SMILES)": "Cn1cncc1-c1c(F)cncc1NC(=O)c1c(N)nn2cc(F)cnc12", "system": "human patients", "setting": "oral, 180 mg once daily, 2 weeks on 1 week off", "endpoint": "patients grade ≥3 white cell decrease", "value": "0%"}
{"Structure (SMILES)": "COc1ccc(-c2c(-c3ccc(C#N)c(F)c3)nc(N3CCC(N)CC3)n(C)c2=O)cc1F", "assay": "item: weight decreased", "system": "human patients", "setting": "oral, dose not given, dose escalation", "endpoint": "patients with serious TEAE", "value": "2%"}
{"Structure (SMILES)": "C[C@@H]1OC(=O)NN=C1c1ccc(-c2ccc(F)cc2)c(C(F)(F)F)c1", "assay": "phase I trial, item: back pain all grades", "system": "human patients", "setting": "20 mg loading then 1 mg daily", "endpoint": "patients with adverse event", "value": "0%"}
{"Structure (SMILES)": "Cn1nc(NS(C)(=O)=O)c2c(Cl)ccc(-n3c([C@H](Cc4cc(F)cc(F)c4)NC(=O)Cn4nc(C(F)F)c5c4C(F)(F)[C@@H]4C[C@H]54)nc4nc(OCCC(F)(F)F)ccc4c3=O)c21", "assay": "item: total cholesterol grade 2 increase", "system": "human", "setting": "400 mg once daily, powder in bottle", "endpoint": "patients with laboratory abnormality", "value": "0%"}
{"note": "Some of these lines once more:"}
{"Structure (SMILES)": "CNC(=O)c1cc(Oc2ccc(NC(=O)Nc3cc(C(C)(C)C)nn3-c3ccc4ncccc4c3)c(F)c2)ccn1", "system": "human, trial", "setting": "oral, 150 mg twice daily, starting dose", "endpoint": "patients with related serious Death AE", "value": "3%"}
